Assay results gathered from unrelated publications.
Lines come from different studies, so protocols differ.
Observed: metabolic stability
Host: human

SMILES | matrix | concentration | pH | measurement | value
O=C(O)Cc1ccccc1Nc1c(Cl)cccc1Cl | hepatocytes | 1 µM |  | scaled CLint | 1.4 mL/min/kg
CNc1cc(N)c(C(N)=O)cn1 | liver microsomes | 1 µM | pH 7.4 | microsomal CLint | < 3 µL/min/mg
Cc1[nH]nc2c1N=C(c1ccccc1Cl)c1cnc(N3CCOCC3)cc1N2 | liver microsomes | 1 µM | pH 7.4 | scaled CLint | 14.9 mL/min/kg
O=C(c1ccc(-c2cccc(C(F)(F)F)c2)cc1)N1CCN(c2ncccn2)CC1 | liver microsomes |  |  | microsomal CLint | 45 µL/min/mg
Cc1ccc2c(c1)nc(NC(=O)c1cccc(C(F)(F)F)c1)n2[C@H]1CC[C@H](N)CC1 | liver microsomes |  |  | microsomal CLint | 27 µL/min/mg
O=C(N1CCCCC1)C12CC(c3ccccc3)(C1)C2(Cl)Cl | liver microsomes | 2 µM | pH 7.4 | microsomal CLint | 65 µL/min/mg
CN(Cc1cc(C2CC2)on1)C(=O)c1cccc(-c2ccc(F)cc2)c1 | liver microsomes | 2 µM | pH 7.5 | microsomal CLint | 16.6 µL/min/mg
CCC1(CC)CC(=O)N(C2c3cc(C(=O)NC4c5ccccc5CC4O)ccc3OC2(C)COC)C(=N)N1 (stereo not drawn) | hepatocytes |  |  | hepatocyte CLint | < 2.5 µL/min/10⁶ cells
Cn1ncc2cc(CN3CCC(F)(F)C(COc4cccc(F)c4)C3)ccc21 (stereo not drawn) | liver microsomes |  |  | scaled CLint | 94.5 mL/min/kg
O=C(N1CCCCC1)C12CC(c3ccccc3)(C1)C2(F)F | liver microsomes | 2 µM | pH 7.4 | microsomal CLint | 19 µL/min/mg
CC(C)C[C@H](NC(=O)[C@@H]1CCCN1C(=O)[C@@H]1CCCN1C(=O)[C@H](CC(N)=O)NC(=O)[C@@H](N)Cc1ccc(Cl)c(Cl)c1)C(=O)N[C@@H](Cc1c[nH]cn1)C(=O)N[C@@H](CO)C(=O)N[C@H](C(=O)N[C@@H](C)C(=O)O)[C@@H](C)OP(=O)(O)O | liver microsomes | 1 µM | pH 7.4 | microsomal CLint | 98 µL/min/mg
Fc1ccc(OCC2CN(Cc3ncc4ccccn34)CCC2(F)F)cc1F (stereo not drawn) | liver microsomes |  |  | scaled CLint | 255 mL/min/kg
CNc1cc(C)c(C(N)=O)cn1 | liver microsomes | 1 µM | pH 7.4 | microsomal CLint | < 4.8 µL/min/mg
COc1ccc(CN2CCC(F)(F)C(COc3ccc(F)c(F)c3)C2)cc1F (stereo not drawn) | liver microsomes |  |  | scaled CLint | 157 mL/min/kg
COc1ccc(C(N)=O)cn1 | liver microsomes | 1 µM | pH 7.4 | microsomal CLint | < 3 µL/min/mg
O=C(Nc1cc(-c2ccnc3[nH]ccc23)c(Cl)cn1)[C@H]1CCC[C@@H](NC(=O)C(F)(F)F)C1 | liver microsomes |  |  | microsomal CLint | 24.5 µL/min/mg
CCC(CC)CNC(=N)NC(=N)NCCCCCCNC(=N)NC(=N)NCC(CC)CC | liver microsomes | 2 µM |  | scaled CLint | 2.6 mL/min/kg
COc1ccc(CN2CCC(F)(F)C(COc3ccc(F)c(C)c3)C2)cc1F (stereo not drawn) | liver microsomes |  |  | scaled CLint | 135 mL/min/kg
Cc1nc2ccc(S(=O)(=O)n3nc(SCc4ccc(Cl)cc4)nc3N)cc2s1 | liver microsomes | 1 µM | pH 7.4 | microsomal CLint | 273 µL/min/mg
Cn1ncc2cc(CN3CCC(F)(F)C(COc4ccc(C#N)cc4)C3)ccc21 (stereo not drawn) | liver microsomes |  |  | scaled CLint | 111 mL/min/kg
O=c1[nH]cccc1[C@H](CO)Nc1nc(N2C[C@@H]3C[C@H]2CO3)c2cc(-c3ccccc3)sc2n1 | hepatocytes |  |  | hepatocyte CLint | 13.5 µL/min/10⁶ cells

Repeated from above:
SMILES | matrix | concentration | pH | measurement | value
Cn1ncc2cc(CN3CCC(F)(F)C(COc4ccc(C#N)cc4)C3)ccc21 (stereo not drawn) | liver microsomes |  |  | scaled CLint | 111 mL/min/kg
Fc1ccc(OCC2CN(Cc3ncc4ccccn34)CCC2(F)F)cc1F (stereo not drawn) | liver microsomes |  |  | scaled CLint | 255 mL/min/kg
